Measurements pooled from the literature.
A part holds a random share of what one study measured. Positions count from the first letter of the parent shown.

Set 1
Target: Histone acetyltransferase KAT6A, winged helix 2, GST fusion (KAT6A, Homo sapiens, UniProt Q92794, residues 85-181)
Technique: protein binding microarray
Molecule type: double-stranded DNA, one strand shown
Sample: in vitro
Tested at: not given
Notes: 8-mer, flanks averaged, mean of 2 arrays, mostly near background
Reference: not given
Direction: higher = stronger binding
Target sequence (chain): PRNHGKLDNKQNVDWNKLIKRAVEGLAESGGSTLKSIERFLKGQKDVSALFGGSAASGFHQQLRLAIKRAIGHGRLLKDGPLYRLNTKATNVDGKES
Strand | E-score
GATAGGCA | 0.0339
CTCGGATA | -0.017
GAGTGCAA | 0.0675
AGTTTGGC | 0.0708
CATAGGCG | -0.08
CACCAGCC | 0.11
ATGCTGCC | 0.0981
ACACCAGC | -0.00325
CGTCACTC | -0.0132
CGTTGAAA | 0.0583
CAGTTGTC | 0.105
CGTGGAAC | 0.0184
ATGGACGC | 0.0673
GCGAGATA | 0.0736
ATAGAGTA | -0.0594
ACGCATCT | 0.0837
TATCCCAA | 0.0997
CGATAGGA | -0.0537
AACAACCC | -0.0244
ATCTTTGG | 0.0294
AAATAATG | 0.0462
AGTCATCC | -0.189
CAAGACCG | -0.0427
GGTGTGTA | -0.166
AGATCTAG | -0.069

Set 2
Target: Sox, HMG box (Pigoraptor chileana)
Technique: Spec-seq
Molecule type: double-stranded DNA, one strand shown
Sample: in vitro
Tested at: not given
Notes: whole probe, mean of replicates
Reference: not given
Direction: lower = stronger binding
Shared flanks, not repeated: GAGTCGTCTCGTCAGCAC … CCGTAGAGCACTCAGGTC
Residues (chain): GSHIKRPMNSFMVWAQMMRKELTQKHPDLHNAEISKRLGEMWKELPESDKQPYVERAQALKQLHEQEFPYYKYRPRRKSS
Strand | relative binding energy [ln ratio]
GCCTGTT | -0.545
CTTGGTT | 0.62
CATTAGG | 0.0673
CATGGAA | 0.458
CATAGCA | -0.183
TTCAGTT | -0.125
CATCACT | 0.437
CATCCGG | 0.736
CATCAAG | -0.0146
CCCTGTT | -0.904
CATAAAA | -0.422
ATATGTT | -0.532
CATTCCA | 0.54
CAATGTT | -0.407
CATTTCA | 0.456

Set 3
Target: TAR DNA-binding protein 43, full length, His tag (TARDBP, Homo sapiens, UniProt Q13148, residues 1-414)
Technique: RNA Bind-n-Seq
Molecule type: RNA
Sample: in vitro
Tested at: 20 nM
Notes: 6-mer, flanks averaged, single round
Added: 150 mM LiCl
Reference: input library
Direction: higher = stronger binding
Strand | 6-mer enrichment (R)
UGAGCA | 0.955
UGAGCC | 0.982
CACUGU | 0.924
UGUGAG | 1.57
UAGGCU | 0.904
GCCACG | 0.93
UCUUCG | 0.842
GAAUGA | 1.12
AAGGUA | 0.93
CGGGAU | 0.953
CUUGGG | 1.1
UGGCAA | 0.93
UACGAA | 0.843
UUGGUA | 1.11
ACGAUA | 0.797
GCCGCA | 0.946
ACGCCU | 0.885
ACGGCG | 0.935
UGAACG | 0.912
CUCCUU | 1.03
GAGAAG | 1.06
CUUCUU | 1
UACUCG | 0.801
GCAGAA | 0.915
GUAUUG | 1.1

Set 4
Target: Sal-like protein 4, full length isoform A (SALL4, Homo sapiens, UniProt Q9UJQ4, residues 1-1053)
UniProt Q9UJQ4, sequence (whole entry, looked up): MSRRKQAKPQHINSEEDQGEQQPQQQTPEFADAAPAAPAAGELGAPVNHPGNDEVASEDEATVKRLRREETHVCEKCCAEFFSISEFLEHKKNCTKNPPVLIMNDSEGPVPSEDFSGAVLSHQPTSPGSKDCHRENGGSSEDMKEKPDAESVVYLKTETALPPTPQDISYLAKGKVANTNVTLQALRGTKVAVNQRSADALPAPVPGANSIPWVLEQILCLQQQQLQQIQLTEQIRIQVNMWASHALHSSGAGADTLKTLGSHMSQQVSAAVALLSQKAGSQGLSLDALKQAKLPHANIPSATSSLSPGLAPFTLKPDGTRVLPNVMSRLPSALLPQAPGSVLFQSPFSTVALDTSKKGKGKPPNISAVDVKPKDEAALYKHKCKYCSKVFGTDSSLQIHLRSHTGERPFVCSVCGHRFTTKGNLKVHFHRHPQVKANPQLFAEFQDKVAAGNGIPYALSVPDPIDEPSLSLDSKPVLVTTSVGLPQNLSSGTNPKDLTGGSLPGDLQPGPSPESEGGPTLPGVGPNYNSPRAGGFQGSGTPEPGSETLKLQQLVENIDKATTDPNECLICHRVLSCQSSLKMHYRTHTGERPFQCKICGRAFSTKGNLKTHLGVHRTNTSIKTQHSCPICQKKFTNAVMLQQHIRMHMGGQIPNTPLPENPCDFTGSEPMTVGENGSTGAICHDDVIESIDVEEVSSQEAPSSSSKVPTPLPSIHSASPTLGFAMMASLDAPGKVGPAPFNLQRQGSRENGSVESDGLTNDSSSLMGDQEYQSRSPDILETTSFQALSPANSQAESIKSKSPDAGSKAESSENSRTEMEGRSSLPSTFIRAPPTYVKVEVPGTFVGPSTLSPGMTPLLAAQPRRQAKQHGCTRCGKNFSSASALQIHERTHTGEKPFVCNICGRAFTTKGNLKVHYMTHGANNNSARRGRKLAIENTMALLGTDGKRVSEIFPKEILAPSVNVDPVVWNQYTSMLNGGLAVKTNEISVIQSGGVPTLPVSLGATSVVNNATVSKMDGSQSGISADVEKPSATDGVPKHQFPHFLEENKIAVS
Technique: universal PBM
Molecule type: double-stranded DNA, one strand shown
Sample: in vitro
Tested at: 600 nM
Notes: 8-mer, flanks averaged, mean of replicates
Direction: higher = stronger binding
Strand | E-score
CGTATAGA | 0.146
ATTTGGAC | 0.13
CAAAGTGA | -0.0772
ACGATGGG | -0.216
CGTACCAG | -0.199
ATTTCGTA | 0.148
ACTATCGG | -0.0702
CGCGCCAA | -0.256
CTCCATGA | 0.0769
CGAACTCC | -0.102
CATACCGA | 0.0989
CAGCCACA | -0.081
GTGCTAGA | -0.0248
AAAACGCA | -0.0385
AACTGGCA | -0.0949
ACGCCTTA | -0.0877
ATAGTAAA | 0.293
TACACCAA | -0.00789
GGACCCCC | -0.442
CCCCGGAG | -0.403
CTTAGGGA | -0.18
AATCGATT | 0.187
ACCGCCAC | -0.148

Set 5
Target: Interferon regulatory factor 7, full length, phosphomimetic (IRF7, Homo sapiens, UniProt Q92985, residues 1-503, S471D/S472D/S475D/S476D/S477D/S483D/S484D/S487D)
Technique: protein-binding microarray
Molecule type: double-stranded DNA, one strand shown
Sample: in vitro
Tested at: 2200 nM top
Notes: 60-bp whole probe
Added: salmon DNA 0.4 mg/ml
Reference: random background probes
Direction: higher = stronger binding
Shared flanks, not repeated: GCCTAGCAC … GTCTTGATTCGCTTGACGCTGCTG
Target sequence (chain): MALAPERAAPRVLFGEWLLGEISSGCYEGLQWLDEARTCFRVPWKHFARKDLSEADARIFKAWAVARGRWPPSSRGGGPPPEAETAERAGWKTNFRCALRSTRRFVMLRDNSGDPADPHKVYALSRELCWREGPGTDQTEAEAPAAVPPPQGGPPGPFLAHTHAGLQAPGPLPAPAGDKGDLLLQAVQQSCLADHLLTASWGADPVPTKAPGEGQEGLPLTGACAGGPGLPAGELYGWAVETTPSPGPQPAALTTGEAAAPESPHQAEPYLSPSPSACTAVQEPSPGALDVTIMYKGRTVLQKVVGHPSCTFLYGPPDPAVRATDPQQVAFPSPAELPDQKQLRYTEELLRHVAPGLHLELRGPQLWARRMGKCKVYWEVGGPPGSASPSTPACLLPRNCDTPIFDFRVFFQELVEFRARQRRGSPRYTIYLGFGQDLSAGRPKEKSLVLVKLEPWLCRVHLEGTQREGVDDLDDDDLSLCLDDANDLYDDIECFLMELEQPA
Strand | fitted relative affinity [z-score]
TCAGTTTCGTATCTTCATACTGTGCTA | 8.32
CATCATTGCCTATTTTTCACCGTGCTA | 1.7
GGCGATATCAGTCTCGAGACGTGCTAG | -0.148
TTAGATTTCGGGTATCGAGTAGTGCTA | 2.54
GAGGGTATCGGTATCGGGACGTGCTAG | 0.167
CTAACTTTCCAATTGTCCTTGTGCTAG | 4.57
GACGGTTCCGGTTTCGGGAGGTGCTAG | 5.02
CCTTGTGTTACTTTCTACTTGTGCTAG | 5.01
GACGGTGTCGGTCTCGGGACGTGCTAG | -0.588
TCATATATACTATATGCAACTGTGCTA | 0.694
TTAGGTCTGCTTCTCCTTTAGTGCTAG | 0.985
CTTTGTTTTTTTCTATATGCGTGCTAG | 2.63
GACGATTTGAGACTGGAGACGTGCTAG | 0.086
AACGGTTTCCTACTGCTGACGTGCTAG | 2.22
GACGATCTCAGTTTCGCGACGTGCTAG | 2.16
GGTCCAACAAACAGATCCATGTGCTAG | 0.354
GACGATTTCAGACTGGAGAGGTGCTAG | 0.128
TTAGGTATCCTTCTCCTTTTGTGCTAG | 1.44
TAGCGTATATTCCCTAGAATAGTGCTA | 0.04
TTAGGTTTCCTTATTCTTTAGTGCTAG | 1.71
CCTCACATGACTGAATGGACGTGCTAG | 0.502
TCAACTTCCCAATTGTCACTGTGCTAG | 2.35
GACGGTTTCGACACTGGGGACGTGCTA | 2.86
GACGAACTGGGGTATCGAGAAGTGCTA | -0.0646
GCACTTTTCCCCCTAGTTGTGTGCTAG | 2.75

Set 6
Target: CCNB2, cyclin fold, Cln2 fusion (human)
Technique: yeast growth competition, sequencing
Sample: yeast
Notes: weak parent motif
Reference: not given
Direction: higher = stronger binding
Starting sequence: CDT1 docking peptide (human); PPARRRLRLSVDE
Variant | normalised enrichment score
R6A | 0.612
L9F | 0.277
R5A L7A | 0.242
R5K L9F | 0.981
P2A | 0.668
E13A | 0.816
V11A | 0.27
L7A | 0.624
D12A | 1.64

Excerpt of the above (set 5):
Strand | fitted relative affinity [z-score]
TTAGGTCTGCTTCTCCTTTAGTGCTAG | 0.985
CTTTGTTTTTTTCTATATGCGTGCTAG | 2.63
GACGATTTGAGACTGGAGACGTGCTAG | 0.086
AACGGTTTCCTACTGCTGACGTGCTAG | 2.22
GACGATCTCAGTTTCGCGACGTGCTAG | 2.16
GGTCCAACAAACAGATCCATGTGCTAG | 0.354
GACGATTTCAGACTGGAGAGGTGCTAG | 0.128
TTAGGTATCCTTCTCCTTTTGTGCTAG | 1.44
TAGCGTATATTCCCTAGAATAGTGCTA | 0.04
TTAGGTTTCCTTATTCTTTAGTGCTAG | 1.71
CCTCACATGACTGAATGGACGTGCTAG | 0.502
TCAACTTCCCAATTGTCACTGTGCTAG | 2.35
GACGGTTTCGACACTGGGGACGTGCTA | 2.86
GACGAACTGGGGTATCGAGAAGTGCTA | -0.0646
GCACTTTTCCCCCTAGTTGTGTGCTAG | 2.75
